# Measured values of several laboratories.
# Each numbered part is a random draw from the data of one study; scales do not carry over between parts.

# Series 1
# Target: Prothrombin, mature alpha-thrombin (F2, Homo sapiens, UniProt P00734)
# Method: aptamer microarray, sandwich
# Form: DNA with 2'F-ANA
# Matrix: in vitro
# Tested at: 200 nM
# Notes: whole 15-mer aptamer, many near background
# Added: Cy3 exosite-II aptamer, 400 nM
# Reading: higher = stronger binding
# Strand: GGTTGGTGTGGTTGG
Modification,mean fluorescence intensity
2'F-ANA at 4 5 6 8 9 10 11 13 14 15,67.5 a.u.
2'F-ANA at 1 5 6 7 8 10 11 12 13 14,47.7 a.u.
2'F-ANA at 3 5 7 8 10 13 15,115 a.u.
2'F-ANA at 1 3 5 8 10 13 15,59.5 a.u.
2'F-ANA at 1 6 7 10 14 15,55.9 a.u.
2'F-ANA at 1 3 5 6 7 8 10 12,102 a.u.
2'F-ANA at 1 2 3 6 8 9 10 14,79.3 a.u.
2'F-ANA at 1 3 5 6 7 8 12 14 15,51.4 a.u.
2'F-ANA at 3 7,1400 a.u.
2'F-ANA at 1 2 6 9 14,79 a.u.
2'F-ANA at 2 3 5 7 9 11 14 15,50.4 a.u.
2'F-ANA at 1 3 4 5 6 7 8 10 12 14,81.9 a.u.
2'F-ANA at 1 2 3 4 5 6 9 10 11 12 15,48.5 a.u.
2'F-ANA at 4 7 9 10 11 14 15,62.2 a.u.
2'F-ANA at 3 4 9 10 11 14 15,197 a.u.
2'F-ANA at 4 6 7 8 9 10 12 13 14,60.4 a.u.
2'F-ANA at 2 5 6 7 10 12 15,54 a.u.
2'F-ANA at 1 4 7 10 11 12 13 14 15,55.6 a.u.
2'F-ANA at 1 2 5 6 7 8 10 11 12 13 15,47.9 a.u.
2'F-ANA at 1 4 8 9 10 12,62.7 a.u.
2'F-ANA at 1 2 5 6 7 9 10 13,65.3 a.u.
2'F-ANA at 4 5 7 8 10 11 12 15,79.5 a.u.
2'F-ANA at 3 5 6 8 11 15,117 a.u.
2'F-ANA at 2 3 4 5 6 7 9 10 11 13,75 a.u.
2'F-ANA at 1 6 10 11 12 13,62.3 a.u.

# Series 2
# Target: RING finger protein unkempt homolog, zinc fingers 1-6, GST-SBP tag (UNK, Homo sapiens, UniProt Q9C0B0, residues 30-357)
# Method: RNA Bind-n-Seq
# Form: RNA
# Matrix: in vitro
# Tested at: not given
# Notes: RNA with constant flanks, human and mouse sites, ends assumed
# Baseline: input RNA pool
# Reading: higher = stronger binding
# All sequences stand within: GGGAGUUCUACAGUCCGACGAUC … CAACAGAGGAUUGAGCAUCA
# Residues (chain): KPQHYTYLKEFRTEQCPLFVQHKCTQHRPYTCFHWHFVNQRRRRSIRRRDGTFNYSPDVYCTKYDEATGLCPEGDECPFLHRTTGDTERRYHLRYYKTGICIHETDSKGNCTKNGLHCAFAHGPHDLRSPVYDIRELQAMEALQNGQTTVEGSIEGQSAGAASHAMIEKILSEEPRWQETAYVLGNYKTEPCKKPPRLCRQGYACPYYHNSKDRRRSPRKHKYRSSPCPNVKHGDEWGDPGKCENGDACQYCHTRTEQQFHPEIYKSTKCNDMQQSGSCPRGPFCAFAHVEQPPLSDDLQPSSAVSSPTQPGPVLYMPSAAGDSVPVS
Strand,bound/input enrichment
AGGGACACAGUGUGUGUCUGAUUGGGCUUCGCAUCAAAAGCCUGACGUUCCUGUCCCUCUUAUAGGGGGAGCUUUGGACACAGGACCAGUUUGAUAAAGGGCCAGGUAAGGGUUUCCACU,0.0667 ratio
UUUAAGUCUGGAGGCAUUCCUGCCCUGGUGAAAAUGCUUGGUUCACCAGUGGAUUCUGUGUUGUUUUAUGCCAUUACAACUCUCCACAACCUUUUAUUACAUCAAGAAGGAGCUAAAAUG,0.284 ratio
CAGAAUACCCAGGGUCUUAUUUUUGUGGUAGAUAGCAACGAUCGUGAAAGAAUUCAGGAAGUAGCAGAUGAGCUGCAGAAAAUGCUUCUGGUAGAUGAAUUGAGAGAUGCAGUGCUGCUA,0.31 ratio
GCAAGGCAGAGCCACCAGAAGAGGGCACCUAGUUUCCAUGACAAAUAUGGGAAUGCUAUAUUAGCAGGUGGAGCCAUCUUCUGUGUUUCUACAUGGACAUAUACAGCCACACAAAUUGGA,0.309 ratio
GUGCUCUUCUAUACCACACGGCCGCGUGACAGCCACCGGGGCAGGCCAGGCCUGGGCAGGGGCUAUGGCUACCGCGUGCACCACGACGUUGUCGCCGGGGACGUCCACUUCGAGCACCCA,0.5 ratio
CAGAAAAUCGAUGAGCUCUUCUCUGGGAAGCUGUACCUCAUUGGAAUUGCAGCCAUUGUGGUAGCUGUCAUUAUGAUCUUUGAGAUGAUUCUGAGCAUGGUGCUGUGCUGUGGCAUCCGG,0.138 ratio
CCAGUCCGAAAAAGAAUGCUGGAAAAACGAGGGGAAGACUUUAAAAAAGAAGGGAAAAUAUACAGACUGAGGACUCAAGAUGACGGUGAAGACGAGAACAACACUUGGAAUGGAAACUCC,0.437 ratio
CUCACCUAUGAAGUCAUUGGAUUUGCCAAUGUCGUAGUCCCAGACUGUGACCUCCAGGGUCUUAGUGGCCAGAGUGGAGAGUUCAAUCUCAUAGAAGAAUUCCUGAGAACAAAGGCAGGC,0.233 ratio
UACCUGCUGCUGCAGACCUACGUGCUCCGCCUAGAAGCUAUCAUGAACAGUAUCUUGCUCUUCUUUUGUGGCUCAGAGCUGCUGCUUGAGAUGCUCACGCUGGCCACCUUCUCCAGCAUG,1.56 ratio
UCAAAGUUCAUCUCUCAUUCAGCAUGAGAGAACUCAUACUGGAGAGAAGCCCUAUGAAUGUAAUGAAUGUGGGAGAGCCUUCCGAAAAAAAACCAACCUGCAUGAUCAUCAGAGAAUUCA,0.168 ratio
CAGUAUCUGAUGGAUAAUCCAACGUUCGCAGAGGAUGAAGAGUUACAGAACAUGGAUAAAGAAGAUGCAUUAAUAUGCUUUGAGGAACACAUCCGGGCUUUAGAAAAGGAAGAAGAAGAA,0.422 ratio

# Series 3
# Target: Interferon regulatory factor 5, full length, phosphomimetic (IRF5, Homo sapiens, UniProt Q13568-2, residues 1-514, K96S/S451D/S453D/S456D/S462D)
# Method: protein-binding microarray
# Form: double-stranded DNA, one strand shown
# Matrix: in vitro
# Tested at: 250 nM
# Notes: 60-bp whole probe
# Added: salmon DNA 0.4 mg/ml
# Baseline: random background probes
# Reading: higher = stronger binding
# All sequences stand within: GCCTAGCAC … GTCTTGATTCGCTTGACGCTGCTG
Strand,log fluorescence [z-score]
TCATTTCTACTTCTCTTACTGTGCTAG,1.84
GACGGTATCGGGAGTGGGGACGTGCTA,0.99
TTAGGACTGGGGTTTTGGTTAGTGCTA,0.288
GACGATTTCAGTCTCGGGACGTGCTAG,1.3
GACGGTATCCTTCTACTGACGTGCTAG,0.115
GACGGTTGCGGGACTGGGGACGTGCTA,-0.182
TTAGATATCGGACTGGGTTAGTGCTAG,0.919
CAGCCTCTGCATTCCCTCAGGTGCTAG,-0.321
GACGAACTGAGTATCGAAACGTGCTAG,4.55
TTAGGTATCGGCTATCGGTTAGTGCTA,6.55
TTAGGTACCGGGACTGGGTTAGTGCTA,-0.357
TTAGGACTGCTTCTCATTTAGTGCTAG,-0.222
TTAGATCTCAGTAACGATTAGTGCTAG,0.177
TTCCCTCTCCCCTCTTGTGCTGTGCTA,-0.0567
TGGCTTTGCCTTTTGCTTTAGTGCTAG,-0.225
GACGATCCCAGACTGGAGACGTGCTAG,-0.411
TTAGATTTCGGGACTCGATTAGTGCTA,2.83
GACGGACTGGGGTATCGGGCCGTGCTA,-0.173
GACGGTTTCGGTTTCGGGGCGTGCTAG,10.5
GTGTTCTGGGCAGCAGAGGGGTGCTAG,-0.85
TTAGGTTTCGACACAGGGTTAGTGCTA,6.39
AAACAAGTCAATGGCCTTTCGTGCTAG,0.545
TCAAATACAAGTTTCTCACTGTGCTAG,0.977
TTAGGTGTCCTTATCCTTTAGTGCTAG,-0.186
TTAGAACTGAGTTTCGATTAGTGCTAG,9.22

# Series 4
# Target: Histone acetyltransferase KAT6A, winged helix 2, GST fusion (KAT6A, Homo sapiens, UniProt Q92794, residues 85-181)
# Method: protein binding microarray
# Form: double-stranded DNA, one strand shown
# Matrix: in vitro
# Tested at: not given
# Notes: 8-mer, flanks averaged, mean of 2 arrays, mostly near background
# Baseline: not given
# Reading: higher = stronger binding
# Residues (chain): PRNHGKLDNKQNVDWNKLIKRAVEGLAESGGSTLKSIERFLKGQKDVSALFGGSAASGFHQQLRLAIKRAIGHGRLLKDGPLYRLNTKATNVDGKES
Strand,E-score
CCTGACAA,0.0736
ACAATATC,0.00826
AGTGATGC,-0.0481
AACAAACT,0.245
ATTCAAGA,0.0208
AGCTCTTG,-0.0392
ACCATGCA,-0.0122
AGGAAAAT,0.0177
CGCATACC,-0.0372
CTAGTCAA,-0.25
CAGCTCGG,0.153
GTACGTTA,-0.165
CAACAGGC,0.082
ATGCTCGC,0.0768
AGCATGTA,-0.299
GTCTCAAA,-0.155
CGTATTAG,0.0486
ATGTGGTA,-0.0442
GCTGAAGA,-0.0352
CTTGTATC,-0.0516
AAATCAGG,-0.0336

# Repeated from above (series 3):
Strand,log fluorescence [z-score]
GACGATCCCAGACTGGAGACGTGCTAG,-0.411
TTAGGACTGGGGTTTTGGTTAGTGCTA,0.288
TTAGGTATCGGCTATCGGTTAGTGCTA,6.55
TTAGATATCGGACTGGGTTAGTGCTAG,0.919
TTAGGTGTCCTTATCCTTTAGTGCTAG,-0.186
TGGCTTTGCCTTTTGCTTTAGTGCTAG,-0.225
TTAGGTACCGGGACTGGGTTAGTGCTA,-0.357
GACGGTATCCTTCTACTGACGTGCTAG,0.115
GACGGTATCGGGAGTGGGGACGTGCTA,0.99
TCATTTCTACTTCTCTTACTGTGCTAG,1.84
GACGATTTCAGTCTCGGGACGTGCTAG,1.3
